Earlier results that unrelated publications cite.
Protocols differ between the studies behind these lines.
Chain of UniProt Q9UM73 (whole entry, looked up): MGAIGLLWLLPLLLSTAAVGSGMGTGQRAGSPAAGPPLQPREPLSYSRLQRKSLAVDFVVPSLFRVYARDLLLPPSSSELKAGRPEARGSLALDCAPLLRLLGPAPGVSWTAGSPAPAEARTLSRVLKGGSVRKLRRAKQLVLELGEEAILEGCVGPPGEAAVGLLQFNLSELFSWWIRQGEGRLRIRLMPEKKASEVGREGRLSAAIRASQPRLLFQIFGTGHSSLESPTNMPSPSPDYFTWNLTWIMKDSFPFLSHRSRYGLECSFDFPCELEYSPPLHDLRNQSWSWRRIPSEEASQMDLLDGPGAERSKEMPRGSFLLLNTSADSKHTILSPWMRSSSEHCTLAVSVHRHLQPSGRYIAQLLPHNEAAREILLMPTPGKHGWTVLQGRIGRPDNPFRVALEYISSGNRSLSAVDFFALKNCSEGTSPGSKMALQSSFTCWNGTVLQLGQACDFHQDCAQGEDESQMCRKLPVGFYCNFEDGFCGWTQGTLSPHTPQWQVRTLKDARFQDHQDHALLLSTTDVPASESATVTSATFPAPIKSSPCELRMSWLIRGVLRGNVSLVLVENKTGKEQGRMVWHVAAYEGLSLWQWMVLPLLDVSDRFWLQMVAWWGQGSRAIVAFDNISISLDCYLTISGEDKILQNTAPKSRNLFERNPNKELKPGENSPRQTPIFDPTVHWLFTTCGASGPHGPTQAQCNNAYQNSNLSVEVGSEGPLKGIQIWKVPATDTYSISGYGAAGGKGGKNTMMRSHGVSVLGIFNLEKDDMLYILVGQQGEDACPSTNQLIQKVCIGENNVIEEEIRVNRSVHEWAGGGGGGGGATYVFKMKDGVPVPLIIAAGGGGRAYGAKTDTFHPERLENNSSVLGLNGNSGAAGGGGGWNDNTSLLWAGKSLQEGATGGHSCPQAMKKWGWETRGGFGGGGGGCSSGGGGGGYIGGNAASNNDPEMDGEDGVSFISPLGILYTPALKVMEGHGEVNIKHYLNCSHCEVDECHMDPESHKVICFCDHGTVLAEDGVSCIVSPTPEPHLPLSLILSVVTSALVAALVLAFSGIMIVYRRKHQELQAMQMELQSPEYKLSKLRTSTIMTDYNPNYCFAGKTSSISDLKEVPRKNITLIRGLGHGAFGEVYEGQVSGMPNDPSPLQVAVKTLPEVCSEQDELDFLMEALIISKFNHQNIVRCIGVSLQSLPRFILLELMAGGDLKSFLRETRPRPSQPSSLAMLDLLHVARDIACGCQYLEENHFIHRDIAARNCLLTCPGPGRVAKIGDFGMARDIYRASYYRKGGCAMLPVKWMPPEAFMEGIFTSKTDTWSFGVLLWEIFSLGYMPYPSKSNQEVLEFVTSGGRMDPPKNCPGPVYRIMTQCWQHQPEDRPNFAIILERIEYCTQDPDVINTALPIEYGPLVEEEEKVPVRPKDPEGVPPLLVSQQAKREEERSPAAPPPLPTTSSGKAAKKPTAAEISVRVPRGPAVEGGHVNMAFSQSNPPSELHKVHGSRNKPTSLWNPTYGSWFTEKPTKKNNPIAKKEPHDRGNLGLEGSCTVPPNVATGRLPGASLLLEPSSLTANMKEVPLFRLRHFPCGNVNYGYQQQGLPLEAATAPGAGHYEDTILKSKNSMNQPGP

SMILES	target or system	assay	test system	conditions	how to read	quantity	value
FC(F)(F)c1ccc(Oc2ccc(-c3noc(-c4ccc5[nH]ccc5c4)n3)cc2)cc1	Lactobacillus gasseri	–	HM-644	–	–	MIC	> 128 µg/mL
COc1cccc(C=Cc2nc(=O)c3ccccc3o2)c1OC	Plasmodium falciparum	whole cell extended time	3D7	72 h	–	IC50	60 nM
CCC[C@@H]1C[C@@H](C(=O)N[C@@H]([C@H]2O[C@H](SC)[C@H](O)[C@@H](O)[C@H]2O)[C@@H](C)O)N(C)C1	Staphylococcus aureus	–	–	–	–	MIC	1 µg/mL
Cc1[nH]c(C)c(-c2ccc(OCc3ccc(F)cc3)cc2)c(=O)c1Br	Plasmodium falciparum	whole cell extended time	3D7	72 h	–	IC50	80 nM
CN[C@H](CC(C)C)C(=O)N[C@H]1C(=O)N[C@@H](CC(N)=O)C(=O)N[C@H]2C(=O)N[C@H]3C(=O)N[C@H](C(=O)N[C@H](C(=O)O)c4cc(O)cc(O)c4-c4cc3ccc4O)[C@H](O)c3ccc(c(Cl)c3)Oc3cc2cc(c3O[C@@H]2O[C@H](CO)[C@@H](O)[C@H](O)[C@H]2O[C@H]2C[C@](C)(N)[C@H](O)[C@H](C)O2)Oc2ccc(cc2Cl)[C@H]1O	Streptococcus pneumoniae	–	NBRC 102642	–	–	MIC	0.34 µM
CCCCCCc1ccc(Oc2ccccc2Cl)c(O)c1	Mycobacterium tuberculosis	–	H37Rv	–	–	MIC	1.57 µg/mL
O=C(O)[C@H]1O[C@@H](Oc2cc3oc(-c4ccccc4)cc(=O)c3c(O)c2O)[C@H](O)[C@@H](O)[C@@H]1O	Mycoplasma gallisepticum	–	–	–	–	MIC	31.2 µg/mL
CCc1c(Cl)c(O)c(Cl)c(O)c1C(=O)O[C@H]1[C@H](O)[C@H](OC)[C@H](OC/C2=C\C=C\C[C@H](O)/C(C)=C/[C@H](CC)[C@@H](O[C@@H]3OC(C)(C)[C@@H](OC(=O)C(C)C)[C@H](O)[C@@H]3O)/C(C)=C/C(C)=C/C[C@@H]([C@@H](C)O)OC2=O)O[C@@H]1C	Bacteroides sp.	–	HM-709	–	–	MIC	> 32 µg/mL
Nc1cc(C(F)(F)F)c(-c2nc(N3CCOCC3)nc(N3CCOCC3)n2)cn1	ALK (Homo sapiens, UniProt Q9UM73)	enzyme activity	–	10 µM	relative to: untreated	remaining activity	94%
Oc1ccc(-c2nc(-c3ccc(OC4CCCC4)cc3)no2)cc1	Lactobacillus gasseri	–	HM-644	–	–	MIC	> 128 µg/mL
CCc1c(Cl)c(O)c(Cl)c(O)c1C(=O)O[C@H]1[C@H](O)[C@H](OC)[C@H](OC/C2=C\C=C\C[C@H](O)/C(C)=C/[C@H](CC)[C@@H](O[C@@H]3OC(C)(C)[C@@H](OC(=O)C(C)C)[C@H](O)[C@@H]3O)/C(C)=C/C(C)=C/C[C@@H]([C@@H](C)O)OC2=O)O[C@@H]1C	Clostridioides difficile	–	23828 resistant clinical isolate	–	–	MIC	> 8 µg/mL
C[C@H]1COCCN1c1nc(-c2cnc(N)cc2C(F)F)nc(N2CCOCC2)n1	MeWo	–	–	–	–	GI50	329 nM
CNC(C)C1CCC(N)C(OC2C(N)CC(N)C(OC3OCC(C)(O)C(NC)C3O)C2O)O1 (centres unmarked)	Klebsiella pneumoniae	–	clinical isolate RKI-No_461/16	–	–	MIC	≤ 0.5 µg/mL
CC1(C)S[C@@H]2[C@H](NC(=O)[C@H](N)c3ccccc3)C(=O)N2[C@H]1C(=O)O	Streptococcus dysgalactiae	–	–	–	–	MIC	0.06 to 4 µg/mL
Oc1ccc(-c2nc(-c3ccc(OC4CCCC4)cc3)no2)cc1	Pseudomonas aeruginosa	–	ATCC 27853	–	–	MIC	> 128 µg/mL
CCN1CCN(c2cc3c(cc2F)c(=O)c(C(=O)O)cn3C2CC2)CC1	Staphylococcus aureus	–	–	–	–	MIC	0.5 µg/mL
CC1(C)S[C@@H]2[C@H](NC(=O)[C@H](N)c3ccccc3)C(=O)N2[C@H]1C(=O)O	Pseudomonas aeruginosa	–	clinical isolate RKI-No_82/10	–	–	MIC	> 16 µg/mL

A few entries again:
SMILES	target or system	assay	test system	conditions	how to read	quantity	value
Oc1ccc(-c2nc(-c3ccc(OC4CCCC4)cc3)no2)cc1	Pseudomonas aeruginosa	–	ATCC 27853	–	–	MIC	> 128 µg/mL
CCN1CCN(c2cc3c(cc2F)c(=O)c(C(=O)O)cn3C2CC2)CC1	Staphylococcus aureus	–	–	–	–	MIC	0.5 µg/mL
